# Experimental data collected from several papers.
# Each line is one published result; not all experiments were run side by side. ± marks the error that the study gave.
Structure (SMILES),target,test,test system,setting,how to read,measurement,result
Cc1cc(NC(=O)C(=O)N2C[C@@H](C)CC[C@@H]2c2ccc3scnc3c2)cnc1N,PRMT5 human,"western blot, refers to: SDMA",HAP1 MTAP wild type,24 h,,IC50,180 nM
CC(=O)NCC1CCCCN1c1nc(NCC2Cc3ccccc3O2)nc(N2CC3C(CCOc4cc(-c5scnc5C)ccc4CNC(=O)C4CC(O)CN4C(=O)C(NC(=O)C4(F)CC4)C(C)(C)C)C3C2)n1 (centres unmarked),BRD9 and VHL-elongin C-elongin B,SPR,immobilized BRD9,,reference: binary KD over ternary KD,cooperativity alpha,> 37
CCCCC(=O)N(C)c1ccc(OC)cc1,HBV core protein Cp149 dimer,solution NMR,,"4 molar equivalents, pH 7.5, 295 K, average over eight residues",reference: apo Cp149 dimer,average chemical shift perturbation,0.018 ppm
CC(=O)NCCN(c1nc(N2CC(Oc3ccccc3)C2)nc(N2CC3C(CCOc4cc(-c5scnc5C)ccc4CNC(=O)[C@@H]4C[C@@H](O)CN4C(=O)[C@@H](NC(=O)C4(F)CC4)C(C)(C)C)C3C2)n1)C(C)C (some centres unmarked),BRD9 and VHL-elongin C-elongin B,SPR,immobilized BRD9,,reference: binary KD over ternary KD,cooperativity alpha,> 57
CCC(C)C[C@](C)(CC)c1ccc(O)cc1 (some centres unmarked),HBV core protein Cp149 dimer,solution NMR,,"4 molar equivalents, pH 7.5, 295 K, average over eight residues",reference: apo Cp149 dimer,average chemical shift perturbation,0.021 ppm
Cc1ncsc1-c1ccc(CNC(=O)[C@@H]2C[C@@H](O)CN2C(=O)[C@@H](NC(=O)C2(F)CC2)C(C)(C)C)c(OCCC2CN(c3nc(NCC(C)(C)C4(O)CCOC4)nc(N4CCC[C@H]4Cn4ccnn4)n3)C2)c1 (some centres unmarked),BRD9 and VHL-elongin C-elongin B,SPR,immobilized BRD9,,reference: binary KD over ternary KD,cooperativity alpha,5.9
COc1cc2ncnc(Oc3ccc(N)cc3F)c2cc1OC,WDR5,,,,"reference: parent hit compound, negative = stronger binding",binding free energy change,-0.99 kcal/mol
CC(=O)NCCN(c1nc(N2CC3C(CCOc4cc(-c5scnc5C)ccc4CNC(=O)[C@@H]4C[C@@H](O)CN4C(=O)[C@@H](NC(=O)C4(F)CC4)C(C)(C)C)C3C2)nc(N2CC(n3ccnc3)C2)n1)C(C)C (some centres unmarked),BRD9 and VHL-elongin C-elongin B,SPR,immobilized BRD9,,reference: binary KD over ternary KD,cooperativity alpha,> 16
Fc1ccc(Nc2nc(NC3CCCCC3)c3ccccc3n2)cc1F,β2AR/β1AR ICL3 chimera,"β-arrestin2 recruitment, antagonist, BRET",,,reference: isoprenaline maximal response,maximal inhibition,-4.2%
c1ccc(-c2n[nH]cc2-c2ccnc3ccccc23)nc1,SSK2 (Candida albicans),"kinase binding, MIB/MS competition",Candida albicans lysate,10 µM,reference: DMSO,log2 fold change,-0.36
CC(=O)NCCN(c1nc(NCc2n[nH]c3c2CCCC3)nc(N2CC3C(CCOc4cc(-c5scnc5C)ccc4CNC(=O)[C@@H]4C[C@@H](O)CN4C(=O)[C@@H](NC(=O)C4(F)CC4)C(C)(C)C)C3C2)n1)C(C)C (some centres unmarked),BRD9 and VHL-elongin C-elongin B,SPR,immobilized BRD9,,reference: binary KD over ternary KD,cooperativity alpha,> 18
CCCCC(=O)N(C)c1ccc(O)cc1,HBV core protein Cp149 dimer,solution NMR,,"4 molar equivalents, pH 7.5, 295 K, average over eight residues",reference: apo Cp149 dimer,average chemical shift perturbation,0.019 ppm
O=S(=O)(NCc1ccncc1)c1ccc(C2CCCCC2)cc1,PU.1 (human),"biotin probe pulldown, refers to: PU.1",,500 µM,reference: DMSO,protein binding,no effect
CCCCC(=O)N(Cc1ccccc1)c1ccc(OCc2ccccc2)cc1,HBV core protein Cp149 dimer,solution NMR,,"4 molar equivalents, pH 7.5, 295 K, average over eight residues",reference: apo Cp149 dimer,average chemical shift perturbation,0.015 ppm
Cc1cn(CC(=O)N(CC(=O)N[C@H]2COC[C@@H]2N(CC(=O)NCCOCCOCC(N)=O)C(=O)Cn2cnc3c(N)ncnc32)[C@H]2COC[C@@H]2NC(=O)CN(C(=O)Cn2cnc3c(N)ncnc32)[C@H]2COC[C@@H]2NC(=O)CN(C(=O)Cn2cnc3c(=O)[nH]c(N)nc32)[C@H]2COC[C@@H]2NC(=O)CN(C(=O)Cn2cc(C)c(=O)[nH]c2=O)[C@H]2COC[C@@H]2NC(=O)CN(C(=O)Cn2cnc3c(=O)[nH]c(N)nc32)[C@H]2COC[C@@H]2NC(=O)CN(C(=O)Cn2cc(C)c(=O)[nH]c2=O)[C@H]2COC[C@@H]2NC(=O)CN(C(=O)Cn2cnc3c(N)ncnc32)[C@H]2COC[C@@H]2NC(=O)CN(C(=O)Cn2cnc3c(=O)[nH]c(N)nc32)[C@H]2COC[C@@H]2N)c(=O)[nH]c1=O,complementary DNA,"duplex formation, UV melting",PBS,"1 µM, pH 7.2",,Tm,76.97 ± 0.34 °C
C=CC(=O)N1[C@@H](c2ccc3c(c2)OCO3)c2[nH]c3ccccc3c2C[C@H]1C(=O)N1CCN(C)CC1,human cyclin E1 wild type-3xFLAG:CDK2,"co-IP with TMT proteomics, refers to: CKS1B",,"concentration not given, P61024",reference: wild type DMSO,relative co-enrichment,114%
CC[C@H](C)[C@H](NC(=O)[C@H](CC(C)C)NC(=O)[C@H](C)NC(=O)[C@H](C)NC(=O)[C@@H]1CCCN1C(=O)[C@@H](NC(=O)[C@H](C)N)C(C)C)C(=O)N[C@@H](CC(C)C)C(=O)N[C@@H](CCCNC(=N)N)C(=O)N[C@@H](CCC(=O)O)C(=O)N[C@@H](CCCCN)C(=O)N[C@@H](CCCCN)C(=O)N[C@@H](CCCCN)C(=O)N[C@@H](CCCCNC(=O)CCCCCNC(=S)Nc1ccc2c(c1)C(=O)OC21c2ccc(O)cc2Oc2cc(O)ccc21)C(N)=O,BIRC2 (human),,,"concentration not given, 10-fold competition",reference: no competitor,log2 fold change,6.88
C=CC(=O)Nc1cccc(Cn2ncc3cnc(Nc4cnn(CCOC)c4)nc32)c1,PRKCI human,"binding, KINOMEscan",,100 nM,lower = stronger binding,percent of control,72%
CCCCCCc1ccc(OC)cc1,HBV core protein Cp149 dimer,solution NMR,,"4 molar equivalents, pH 7.5, 295 K, average over eight residues",reference: apo Cp149 dimer,average chemical shift perturbation,0.029 ppm
CCCCCC(O)/C=C/C=O (centres unmarked),hippocalcin (human),"IA-probe cysteine labelling, covalent modifier, competitive isoTOP-ABPP","proteome, soluble, MDA-MB-231","100 µM, 60 min, in vitro","reference: DMSO over compound, higher = stronger blockade",isoTOP-ABPP ratio,1.9
CC(C)CCc1ccc(N)cc1,HBV core protein Cp149 dimer,solution NMR,,"4 molar equivalents, pH 7.5, 295 K, average over eight residues",reference: apo Cp149 dimer,average chemical shift perturbation,0.064 ppm
Nc1ncc(-c2cc(-c3cnn(CC(F)(F)F)c3)ncc2F)nc1C(=O)NC1CNCC(F)C1 (centres unmarked),MLCK,KINOMEscan competition binding,,1 µM,reference: DMSO control,remaining binding,67%
CCCCCCc1ccc2cc(O)ccc2c1,HBV core protein Cp149 dimer,solution NMR,,"4 molar equivalents, pH 7.5, 295 K, average over eight residues",reference: apo Cp149 dimer,average chemical shift perturbation,0.027 ppm
Fc1ccc(Nc2nc(NC3CCCCC3)c3cc(Br)ccc3n2)cc1F,β2AR/β1AR ICL3 chimera,"β-arrestin2 recruitment, antagonist, BRET",,added: isoprenaline 1 µM,,pIC50,6.3
CC(C)OCc1ccc(O)cc1,HBV core protein Cp149 dimer,solution NMR,,"4 molar equivalents, pH 7.5, 295 K, average over eight residues",reference: apo Cp149 dimer,average chemical shift perturbation,0.038 ppm
O=c1c(-c2cccc(F)c2)c[nH]c2ccnc(Cl)c12,WDR5,,,,"reference: parent hit compound, negative = stronger binding",binding free energy change,-0.61 kcal/mol

# A few entries again:
Structure (SMILES),target,test,test system,setting,how to read,measurement,result
CC(=O)NCCN(c1nc(N2CC(Oc3ccccc3)C2)nc(N2CC3C(CCOc4cc(-c5scnc5C)ccc4CNC(=O)[C@@H]4C[C@@H](O)CN4C(=O)[C@@H](NC(=O)C4(F)CC4)C(C)(C)C)C3C2)n1)C(C)C (some centres unmarked),BRD9 and VHL-elongin C-elongin B,SPR,immobilized BRD9,,reference: binary KD over ternary KD,cooperativity alpha,> 57
O=S(=O)(NCc1ccncc1)c1ccc(C2CCCCC2)cc1,PU.1 (human),"biotin probe pulldown, refers to: PU.1",,500 µM,reference: DMSO,protein binding,no effect
CCCCCCc1ccc2cc(O)ccc2c1,HBV core protein Cp149 dimer,solution NMR,,"4 molar equivalents, pH 7.5, 295 K, average over eight residues",reference: apo Cp149 dimer,average chemical shift perturbation,0.027 ppm
